Measurements gathered from unrelated publications.
Every numbered part comes from another study and shows a few of its results, in no order. Changes are numbered by the printed parent chain.

Set 1
Target: CCNB2, cyclin fold, Cln2 fusion (human)
Method: yeast growth competition, sequencing
Medium: yeast
Setting: weak parent motif
Baseline: not given
Direction: higher = stronger binding
Quantity: normalised enrichment score
Parent: RB1 docking peptide (human); PKPLKKLRFDIEG
PKPHKKLRFDIEG [L4H]: 0.28
PKPLKKWRFDIEG [L7W]: 0.522
PKPLKKLRFDYEG [I11Y]: 0.205
PKPLQKLRFDIEG [K5Q]: 0.139
PKPLKKLRFGIEG [D10G]: 1.22
PKPLKKLHFDIEG [R8H]: 0.333
PWPLKKLRFDIEG [K2W]: 0.00181
PKPLCKLRFDIEG [K5C]: 0.0365
PKPLKKLEFDIEG [R8E]: -0.33
PKDLKKLRFDIEG [P3D]: 0.656
PYPLKKLRFDIEG [K2Y]: 0.665
PKPLKKLRFKIEG [D10K]: 0.0505
PKPEKKLRFDIEG [L4E]: 0.279
PMPLKKLRFDIEG [K2M]: 0.27
PKPLKKLRFDSEG [I11S]: 0.187
PKPLKHLRFDIEG [K6H]: 0.613
PKPLKKLRFDIES [G13S]: 0.42
PKPLKKLRFDIEC [G13C]: 0.748
DKPLKKLRFDIEG [P1D]: 0.769

Set 2
Target: Sal-like protein 4, full length isoform A (SALL4, Homo sapiens, UniProt Q9UJQ4, residues 1-1053)
UniProt Q9UJQ4, sequence (whole entry, looked up): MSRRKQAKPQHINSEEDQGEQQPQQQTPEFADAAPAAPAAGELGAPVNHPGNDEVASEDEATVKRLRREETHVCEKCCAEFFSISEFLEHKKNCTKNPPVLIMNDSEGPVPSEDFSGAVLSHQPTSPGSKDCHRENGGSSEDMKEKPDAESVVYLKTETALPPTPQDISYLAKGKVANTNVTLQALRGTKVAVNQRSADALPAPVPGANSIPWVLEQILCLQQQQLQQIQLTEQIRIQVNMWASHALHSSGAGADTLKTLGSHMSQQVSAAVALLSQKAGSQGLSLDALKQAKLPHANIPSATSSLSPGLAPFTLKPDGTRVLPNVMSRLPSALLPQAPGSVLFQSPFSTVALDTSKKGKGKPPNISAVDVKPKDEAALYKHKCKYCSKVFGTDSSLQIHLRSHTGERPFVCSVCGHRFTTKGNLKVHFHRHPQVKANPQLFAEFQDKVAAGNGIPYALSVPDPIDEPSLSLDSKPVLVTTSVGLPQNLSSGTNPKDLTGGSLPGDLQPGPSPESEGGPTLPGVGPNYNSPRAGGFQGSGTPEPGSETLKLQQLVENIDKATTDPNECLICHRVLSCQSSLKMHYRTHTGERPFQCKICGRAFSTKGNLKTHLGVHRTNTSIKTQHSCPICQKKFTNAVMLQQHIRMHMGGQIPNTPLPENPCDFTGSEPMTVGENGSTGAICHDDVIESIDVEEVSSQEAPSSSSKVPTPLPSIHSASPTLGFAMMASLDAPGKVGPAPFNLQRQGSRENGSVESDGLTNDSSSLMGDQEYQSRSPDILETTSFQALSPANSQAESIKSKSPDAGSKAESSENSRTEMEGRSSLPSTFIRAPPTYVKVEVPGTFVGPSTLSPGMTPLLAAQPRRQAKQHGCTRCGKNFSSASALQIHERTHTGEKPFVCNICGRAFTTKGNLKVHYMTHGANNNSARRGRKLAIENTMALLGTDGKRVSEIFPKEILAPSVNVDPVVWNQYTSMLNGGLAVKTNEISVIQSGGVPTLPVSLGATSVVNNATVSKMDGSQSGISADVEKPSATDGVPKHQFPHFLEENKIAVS
Method: universal PBM
Form: double-stranded DNA, one strand shown
Medium: in vitro
Tested at: 600 nM
Setting: 8-mer, flanks averaged, mean of replicates
Direction: higher = stronger binding
Quantity: E-score
GAAATCAC: 0.211
CGCCGTTC: -0.23
AGCTCATA: 0.187
CCCGTCCG: -0.424
ATGTTTCC: 0.0508
ACGATACG: 0.0646
CTTTTTAC: 0.166
AGCCGGGA: -0.236
CCAGGTCC: -0.282
AACCTCAA: 0.0895
ATAGGTAG: 0.0885
ATCATGCA: 0.145
CACGCATG: -0.194
ACGGCGGG: -0.269
CGATCGTC: -0.157
AGGGCGAA: -0.0804
CTTTGTGA: 0.108
CACATGAA: 0.136
ACCCGTGA: -0.205
CCGACGGC: -0.357
CAATGACA: 0.129
ATAAGATC: 0.0824
ATCTTAGA: 0.039
CATAGCCA: -0.011
GCGTTAAC: -0.0443

Set 3
Target: Ras GTPase-activating protein-binding protein 1, full length (G3BP1, Homo sapiens, UniProt Q13283)
UniProt Q13283, sequence (whole entry, looked up): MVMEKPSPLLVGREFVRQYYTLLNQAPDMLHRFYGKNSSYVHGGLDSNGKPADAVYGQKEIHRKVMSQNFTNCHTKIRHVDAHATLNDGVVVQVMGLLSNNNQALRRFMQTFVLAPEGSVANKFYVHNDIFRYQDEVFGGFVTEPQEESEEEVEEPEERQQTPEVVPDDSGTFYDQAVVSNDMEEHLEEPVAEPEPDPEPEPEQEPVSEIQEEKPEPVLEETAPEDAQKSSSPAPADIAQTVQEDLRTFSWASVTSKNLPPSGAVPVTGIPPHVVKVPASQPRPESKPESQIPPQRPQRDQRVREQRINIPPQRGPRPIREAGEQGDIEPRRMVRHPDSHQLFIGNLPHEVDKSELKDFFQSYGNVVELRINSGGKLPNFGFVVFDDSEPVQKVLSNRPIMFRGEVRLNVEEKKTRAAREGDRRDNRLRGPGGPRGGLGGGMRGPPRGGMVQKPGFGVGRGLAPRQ
Method: RNA Bind-n-Seq
Form: RNA
Medium: in vitro
Tested at: 200 nM
Setting: whole 134-nt RNA, ends assumed
With: 150 mM KCl
Baseline: input library
Direction: higher = stronger binding
Quantity: log2 enrichment
All sequences stand within: GGGAGUUCUACAGUCCGACGAUC … UGGAAUUCUCGGGUGUCAAGG
GUCCUGUGCUACACAUCGUAUGUACCGAAUCGGUUUUUUUGGUUUUUGGAAAAAAAGGAAAGUAUUAUGUUACGCCGUUCGGAUCUGCAC: -1.11
GCAGGAAGUAAAAACAAAUGGAAAUGCUUCGGAUAGUGGCAGGGGUGGGGGUUGCUAAGGAAAGGGUGGGAUGGGAGUGGGUAGAGAGUU: 1.24
UAACUUUAGAGGAGGAUCUGAUGGAUAUGGCAGUGGACGUGGAUUUGGGGAUGGCUAUAAUGGGUAUGGAGGAGGACAUGGAGGUGGCAA: 0.408
AAGUCCUGUGCUACACAUCGUAUGUACCGAAUCGGGGAGGGGAAAAAGGGGUGGGGAAAGUAUUAUGUUACGCCGUUCGGAUCUGCACUU: 0.764
UUGACCGGAGCGGCCGUCACUUUGGUACAAUCCUCAAUUACCUGCGGGAUGGGUCUGUGCCACUGCCGGAGAGUACGAGAGAACUGGGGG: -1.05
UGGGAGGUGGAUUUUGUUUAUUUUUUUAGCUCAUUUCCAGGGGUGGGAAUUUUUUUUUAAUAUGUGUGAUGAAUAAAGUUGUUUUUGAAA: 0.422
UCCUCAAGUCCUGUGCUACACAUCGUAUGUACCGAAUCGGUGGUGGGUGGGAAAGUAUUAUGUUACGCCGUUCGGAUCUGCACUUCCAGC: 0.0819
AAGUCCUGUGCUACACAUCGUAUGUACCGAAUCGGAAAAAAAGGAAAAAAAGGUGGAAAGUAUUAUGUUACGCCGUUCGGAUCUGCACUU: -1.17
UGGCCCUGGUGGCAUGCGGGGAGGAAGAGGUUGCCUCAUGGAUCGUGGUGGUCCCGGUGGAAUGUUCAGAGGUGGCCGUGGUGGAGACAG: 0.0387

Set 4
Target: RNA binding protein fox-1 homolog 2, RRM domain, GST-SBP tag (RBFOX2, Homo sapiens, UniProt O43251-10, residues 100-194)
Method: RNA Bind-n-Seq
Form: RNA
Medium: in vitro
Tested at: 365 nM
Setting: natural RNA segment, single round, ends assumed
Baseline: no-protein control
Direction: higher = stronger binding
Quantity: RBNS enrichment (R)
All sequences stand within: GGGAGUUCUACAGUCCGACGAUC … UGGAAUUCUCGGGUGCCAA
Residues (chain): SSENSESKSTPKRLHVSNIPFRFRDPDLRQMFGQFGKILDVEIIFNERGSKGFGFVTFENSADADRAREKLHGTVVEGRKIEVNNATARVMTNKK
GGCAGUGAGAGGAUAGGCACAGUGGACCGGGCAGGUGUCCACCAGCAGCUCAGCCCCUGCAGUCAUCUCAGAGCCCCUUCCCGGGCCUCUCCCCCAAGGCUCCCUGCCCC: 0.239
CAGGAAUACCCAGGGUGGUGGGACUGACAUCAGGGGAGUGGCGUCUGCCCACCCCCCACCCUGUCCCUCCGGGGGUGAACCAGCCAGGCUGCACUACAAUGUCCACAGGC: 0.19
CGAGGAUGUGUUGCCUGGGCACGGUGACUGCGGUUAUUCCUGGAGGUCGGCAGACAUGCCAACCUUGGGCUAUUUGAGCUGGAGAAGCUAUGUGAUGCUAGCCGGUGGCU: 0.599
CUUAAGUUGACCAGUUCUCAUAGCUCUAUCACUAGAAUGGUUUGCAGAUACCCCAAACAUACUAUGAUAAAAUCAAAUUGUGCUACUUUUGACCCAUGUAAUUUACCUAA: 0.488
UGGUGUGCAUGGGCACAUGUACUGACUAUGACUGUCGGUGUGUGUUGUUAUACAGUCCAGGAACUGGUAAGUGCCCUCACCAGCGAGCAUGGCAGGUAGCUUCACUCAGU: 1.33
AAACUUAGUCCAGGAUAUUUUCCUUUGUGUUUUAUAACUUUACAGAGGACCAAAGCAAUUCUUGUUUUAGUUUCUUUGCGAAGCCUGCUCCUCCUUCCCUUCAUAAGGAC: 0.251
UUGGGCCGGCCCCGGUGCCCACCUGUACCCCCACCUCGCCCAUUUGGCCGCGUGCACUGAGUGUCACUUUGCUGCAGCUCGUUUCUUUCCAAUAAAAGUUUCUGUGACUU: 0.28
UUUUUUUAAGUGUGAAAGAUUAGUGCCUUUUGGCAUACUUUUGAUUUUAGAGGAUAUAGUAUCGGCAUUGACAAAUCACGUAGAAACAAAGAAUGCUAUAGAUGACAACA: 0.53

For quick reference, copied from above (set 1):
PKPLKKLEFDIEG [R8E]: -0.33
PKDLKKLRFDIEG [P3D]: 0.656
PYPLKKLRFDIEG [K2Y]: 0.665
PKPLKKLRFKIEG [D10K]: 0.0505
PKPEKKLRFDIEG [L4E]: 0.279
PMPLKKLRFDIEG [K2M]: 0.27
PKPLKKLRFDSEG [I11S]: 0.187
PKPLKHLRFDIEG [K6H]: 0.613
PKPLKKLRFDIES [G13S]: 0.42
